Published values gathered from unrelated publications.
Numbered parts are unrelated; each lists some results of a single study.

Sample 1
Target: Sal-like protein 4, full length isoform A (SALL4, Homo sapiens, UniProt Q9UJQ4, residues 1-1053)
UniProt Q9UJQ4, sequence (whole entry, looked up): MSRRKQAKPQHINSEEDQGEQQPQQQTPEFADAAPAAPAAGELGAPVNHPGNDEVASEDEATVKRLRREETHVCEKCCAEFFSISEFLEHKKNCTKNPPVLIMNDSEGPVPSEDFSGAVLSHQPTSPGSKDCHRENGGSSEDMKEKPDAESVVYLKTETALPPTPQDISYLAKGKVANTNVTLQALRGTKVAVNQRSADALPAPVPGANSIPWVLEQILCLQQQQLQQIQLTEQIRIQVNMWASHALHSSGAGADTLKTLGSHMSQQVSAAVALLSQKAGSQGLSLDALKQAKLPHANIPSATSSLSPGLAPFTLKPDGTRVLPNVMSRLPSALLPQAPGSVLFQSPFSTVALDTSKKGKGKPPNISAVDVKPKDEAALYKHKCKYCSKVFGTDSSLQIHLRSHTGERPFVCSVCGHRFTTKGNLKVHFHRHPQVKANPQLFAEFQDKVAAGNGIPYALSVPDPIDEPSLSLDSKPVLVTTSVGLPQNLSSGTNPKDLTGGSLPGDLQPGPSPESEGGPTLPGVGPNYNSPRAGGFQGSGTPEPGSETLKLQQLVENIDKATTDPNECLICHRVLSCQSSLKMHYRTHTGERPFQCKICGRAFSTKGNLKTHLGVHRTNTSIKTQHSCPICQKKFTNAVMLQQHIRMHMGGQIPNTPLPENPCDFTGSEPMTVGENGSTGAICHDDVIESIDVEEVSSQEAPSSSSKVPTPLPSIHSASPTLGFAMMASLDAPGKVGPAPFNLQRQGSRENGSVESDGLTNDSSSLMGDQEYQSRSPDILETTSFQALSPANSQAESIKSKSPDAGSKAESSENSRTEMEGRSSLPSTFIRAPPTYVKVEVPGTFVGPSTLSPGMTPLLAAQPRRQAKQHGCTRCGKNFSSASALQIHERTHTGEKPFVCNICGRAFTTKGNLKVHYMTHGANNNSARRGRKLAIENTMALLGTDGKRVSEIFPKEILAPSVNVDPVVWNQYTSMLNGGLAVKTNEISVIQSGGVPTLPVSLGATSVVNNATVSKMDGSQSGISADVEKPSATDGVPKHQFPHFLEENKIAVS
Method: universal PBM
Form: double-stranded DNA, one strand shown
Sample: in vitro
Concentration: 600 nM
Notes: 8-mer, flanks averaged, mean of replicates
Direction: higher = stronger binding
Strand | E-score
AGAGCAAA | 0.122
CCAGATGC | -0.157
GCGACCCA | -0.33
CCGGGCTC | -0.386
CACCTTTC | -0.0755
ACGCTAGA | -0.0341
ATTTCTAC | 0.23
GATGCCAA | -0.0114
ACTATCAA | 0.102

Sample 2
Target: Interferon regulatory factor 5, full length, phosphomimetic (IRF5, Homo sapiens, UniProt Q13568-2, residues 1-514, K96S/S451D/S453D/S456D/S462D)
Method: protein-binding microarray
Form: double-stranded DNA, one strand shown
Sample: in vitro
Concentration: 250 nM
Notes: 60-bp whole probe
Together with: salmon DNA 0.4 mg/ml
Baseline: random background probes
Direction: higher = stronger binding
All sequences stand within: GCCTAGCAC … GTCTTGATTCGCTTGACGCTGCTG
Strand | log fluorescence
TTAGGTATCCTTCTCCGTTAGTGCTAG | 0.252 z-score
TTAGCTCTCGGTTTCGGTTAGTGCTAG | 9.17 z-score
GTGCCTTTTTTTTTTTTTCTGTGCTAG | 0.745 z-score
GACGATCTGAGTATCGAGACGTGCTAG | 1.59 z-score
GTTTCTTTTCTTTTCTTTTTGTGCTAG | 3.72 z-score
TGAGGACTGGACTATCGGTTAGTGCTA | 5.71 z-score

Sample 3
Target: Fragile X messenger ribonucleoprotein 1, C-terminal low-complexity region (Fmr1, Mus musculus, UniProt P35922)
Method: RNA Bind-n-Seq
Form: RNA
Sample: in vitro
Concentration: 200 nM
Notes: whole 134-nt RNA, ends assumed
Together with: 150 mM KCl
Baseline: input library
Direction: higher = stronger binding
All sequences stand within: GGGAGUUCUACAGUCCGACGAUC … UGGAAUUCUCGGGUGUCAAGG
Strand | log2 enrichment
GCAGGAAGUAAAAACAAAUGGAAAUGCUUCGGAUAGUGGCAGGGGUGGGUGUUGCUAAGGAAAGGGUGGGAUGGGAGUGGGUAAAGAGUU | 0.124
UGGUUUUGGUGCCUGGCAUCGAAGAUGGUGUGUUCUUUCUGGAAACUGUAUAUCUUAUUGGACUUAUCCAGAUGAUGAGAAACGCAAGGU | -0.55
UAACUUUAGAGGAGGUUCUGAUGGAUAUGGCAGUGGACGUGGAUUUGGGGAUGGCUAUAAUGGGUAUGGAGGAGGACCUGGAGGUGGCAA | 0.452
CCUCAAGUCCUGUGCUACACAUCGUAUGUACCGAAUCGGAGGUUUGGUUUGGAAAGUAUUAUGUUACGCCGUUCGGAUCUGCACUUCCAG | -0.0314
GUCCUGUGCUACACAUCGUAUGUACCGAAUCAAACCCCCAAAUUUAAAUUUUUUUAAAAAAGUAUUAUGUUACGCCGUUCGGAUCUGCAC | 0.272
ACCAUGCAGGUGGGCAUCUUUGGGAAGUGGGGCAAGGGGGGGAAAAGGAGGGGGGUAACACUUUGGGAACAGGUGGUCCCAGGUCGUUUC | 0.515
UAACUUUAGAGGAGGAUCUGAUGGAUAUGGCAGUGGACGUGGAUUUGGGGAUGGCUAUAAUGGGUAUGGAGGAAGACCUGGAGGUGGCAA | 0.194
CCUGUGCUACACAUCGUAUGUACCGAAUCGGGGUUUUUGGGGAAAAAGGGGAAAAAGGGGAAAGUAUUAUGUUACGCCGUUCGGAUCUGC | 0.125
AAGUCCUGUGCUACACAUCGUAUGUACCGAAUCGGUUUUUGGUUUUUGGAAAAAGGAAAGUAUUAUGUUACGCCGUUCGGAUCUGCACUU | -1.04

Mixed results
Substance | target | test | system | conditions | scale | endpoint | value
PhoQ, residues 284 288 289 292 302 303 SLKLQV | PhoP, residues 12 14 15 18 19 NHFRA (Escherichia coli, UniProt P23836) | Sort-seq, refers to: YFP reporter | E. coli | PhoQ-PhoP variant library, together with: 10 µM Mg2+ | baseline: high Mg2+ state, higher = stronger signaling | fold induction | 13.7
